Results collected from several papers.
Protocols differ between the studies behind these lines. ± gives the spread as reported.

The IC50 of `Cc1cc(N)c2cc(NC(=O)Nc3ccc4nc(C)cc(N)c4c3)ccc2n1` is reported as 10200 ± 200 nM (factor Xa; anticoagulant neutralization, chromogenic; with: fondaparinux 0.2 IU/mL, human antithrombin III).
`N=C(N)NC[C@@H]1O[C@H](O[C@H]2[C@@H](O)[C@H](O[C@@H]3[C@@H](O)[C@H](NC(=N)N)C[C@H](NC(=N)N)[C@H]3O[C@H]3O[C@H](CNC(=N)N)[C@@H](O)[C@H](O)[C@H]3NC(=N)N)O[C@@H]2CO)[C@H](NC(=N)N)[C@@H](O)[C@@H]1O` has an IC50 of roughly 6000 nM (RNase P holoenzyme Escherichia coli; 37 °C, with: 10 mM Mg2+).
With `C=CC(=O)N1[C@@H](c2ccc3c(c2)OCO3)c2[nH]c3ccccc3c2C[C@H]1C(=O)N1CCN2CCOC[C@H]2C1` the IC50 was 1000 nM (human NanoLuc-cyclin E1 N112C; probe labelling, BRET-ABPP; HEK293T cell lysate; 2 h pre-treatment, target engagement, with: probe YZ-01-A 10 µM 90 min).
With `CCCCC/C=C/C(=O)CCc1ccc(O)c(OC)c1` the IC50 was 0.00057 µg/mL (mAb 2-LD2; antibody binding, indirect competitive ELISA; with: coating antigen hapten 2-OVA).
For `O=C(CCCCCc1ccc2c(c1)c1ccccc1n2Cc1ccccc1)NO`, the IC50 was 800 nM (histone deacetylase, mouse; inhibitor; GL261 cell nuclear extract).
With `COc1cc(CCC(C)=O)ccc1O` the IC50 was 1.25 µg/mL (mAb 2-LD2; antibody binding, indirect competitive ELISA; with: coating antigen hapten 4-OVA).
`O=C1/C(=C/c2ccc3c(c2)OCCO3)SC(=S)N1[C@@H]1O[C@H](CO)[C@@H](O)[C@H](O)[C@H]1O` has an IC50 of 18200 ± 310 nM (DNA; DNA intercalation, methyl green displacement).
The IC50 of `O=C(CCCC(=NO)c1ccc2c(c1)c1ccccc1n2CC(=O)NO)NO` is reported as 1200 nM (histone deacetylase, mouse; inhibitor; GL261 cell nuclear extract).
`CN1CCN(Cc2ccc(NC(=O)c3ccc(C(C)(C)C)c(C#Cc4cnc5cccnn45)c3)cc2C(F)(F)F)CC1` has an IC50 of greater than 10000 nM (RIPK2; NF-kB reporter gene, inhibitor; HEK-Blue NOD2 NF-kB-SEAP; 8 h, with: 1 µg/mL L18-MDP).
The IC50 of `O=C(CCc1ccc(CNC(C(=O)OC2CCCC2)C2CCCCC2)cn1)NO` (centres unmarked) is reported as 55 nM (HDAC from HeLa nuclear extract; enzyme activity).
`Cc1cc(N)c2cc(NC(=O)COCC(=O)Nc3ccc4nc(C)cc(N)c4c3)ccc2n1` has an IC50 of 39500 ± 1600 nM (factor Xa; anticoagulant neutralization, chromogenic; with: fondaparinux 0.2 IU/mL, human antithrombin III).
For `O=C(CCCCc1ccc2c(c1)c1ccccc1n2Cc1ccccc1)NO`, the IC50 was 800 nM (histone deacetylase, mouse; inhibitor; GL261 cell nuclear extract).
For `CC(C)c1cnc(-c2cc(Cl)ccc2F)cc1Nc1ccncc1C(=O)NC(CO)CO`, the IC50 was 25 ± 4.32 nM (TGF-β receptor type 1 (mouse); SMAD2 Ser465/467 phosphorylation, inhibitor; 4T1; unbound drug, with: TGF-β).
For `Cc1cc(N)c2cc(NC(=O)CCC(=O)Nc3ccc4nc(C)cc(N)c4c3)ccc2n1`, the IC50 was 13700 ± 2700 nM (factor Xa; anticoagulant neutralization, chromogenic; with: enoxaparin 0.2 IU/mL, human antithrombin III).

Excerpt of the above:
For `O=C(CCCCc1ccc2c(c1)c1ccccc1n2Cc1ccccc1)NO`, the IC50 was 800 nM (histone deacetylase, mouse; inhibitor; GL261 cell nuclear extract).
